Experimental data collected from several papers.
± marks the error that the study gave.

CO[C@@H]1[C@@H](OC(N)=O)[C@@H](O)[C@H](Oc2ccc3c(O)c(NC(=O)c4ccc(O)c(CC=C(C)C)c4)c(=O)oc3c2C)OC1(C)C
colony survival (DLD-1 BRCA2-/-; 200 µM, replicate B; relative to: untreated): 0.312%

c1ccc(-c2n[nH]cc2-c2ccnc3ccccc23)nc1
log2 fold change (AKL1 (Candida albicans); kinase binding, MIB/MS competition; Candida albicans lysate; 1 µM; relative to: DMSO): 0.04

COC1CN([C@H]2CC[C@H]([C@@]3(C)Oc4c(Cl)cc(C(=O)NCc5c(SC)cc(C)[nH]c5=O)c(C)c4O3)CC2)C1
log2 fold change (RNA-seq, item: PURA; human, whole blood; dose not given, 24 h; relative to: pretreatment baseline): 1.1

C[n+]1cccc2cc(/C=N/NC(=O)c3cc(C(=O)N/N=C/c4ccc5c(ccc[n+]5C)c4)ncn3)ccc21
ΔTm (22CTA telomeric G4-DNA antiparallel; FRET melting; 1 µM, K10 buffer, DNA 0.2 µM): 3.9 ± 0.9 °C

C=CC(=O)N1[C@@H](c2ccc3c(c2)OCO3)c2[nH]c3ccccc3c2C[C@H]1C(=O)N1CCN(C)CC1
log2 fold change (CCNE1 WT-3xFLAG:CDK2 complex; co-IP TMT proteomics, item: TK1; HEK-293T; 20 µM, 6 h; relative to: DMSO): 0.0144

C[n+]1ccc(/C=N/NC(=O)N/N=C/c2cc[n+](C)c3ccccc23)c2ccccc21
ΔTm (22CTA telomeric G4-DNA antiparallel; FRET melting; 1 µM, K10 buffer, DNA 0.2 µM): 6 ± 0.9 °C

Cc1ncsc1-c1ccc(C(C)NC(=O)C2CC(O)CN2C(=O)C(NC(=O)CCCCCCCCCCN2CCCC(Nc3ncc(Cl)c(Nc4ccccc4S(=O)(=O)C(C)C)n3)C2)C(C)(C)C)cc1 (stereo not drawn)
log2 fold change (22Rv1; RNA-seq, item: ZNF57 mRNA; concentration not given; relative to: DMSO): -1.26

C=CC(=O)Nc1cccc(Cn2ncc3cnc(Nc4cnn(CCOC)c4)nc32)c1
binding (human MLCK; KINOMEscan; 100 nM; relative to: control): 81%

O=C(N/N=C/c1cc[n+](CC2CC2)c2ccccc12)c1ccc2ccc3ccc(C(=O)N/N=C/c4cc[n+](CC5CC5)c5ccccc45)nc3c2n1
ΔTm (22CTA telomeric G4-DNA antiparallel; FRET melting; 1 µM, K10 buffer, DNA 0.2 µM): 22.3 ± 0.7 °C

C=C(NC(=O)c1csc(-c2nc3c(cc2O)-c2nc(cs2)C(=O)NC(C(C)O)C(=O)NC(=C(C)OC)c2nc(cs2)C(=O)NC2c4nc(cs4)C(=O)NC(COC(=O)c4c5c6c(cccc6n4O)COC(=O)C(OC4CC(C)(O)C(N(C)C)C(C)O4)C2OC5)c2nc-3cs2)n1)C(N)=O (stereo not drawn)
bacterial load (Streptococcus pneumoniae; -4, immunocompromised mice, lung infection, lung; 2 mg/kg/day once daily, 24 h post-dose): 5 log CFU/g

C[n+]1cccc2cc(/C=N/NC(=O)C(=O)N/N=C/c3ccc4c(ccc[n+]4C)c3)ccc21
ΔTm (22CTA telomeric G4-DNA antiparallel; FRET melting; 1 µM, K10 buffer, DNA 0.2 µM): 3 ± 1.6 °C

Nc1ncc(-c2cc(-c3cnn(CC(F)(F)F)c3)ncc2F)nc1C(=O)NC1CNCC(F)C1 (stereo not drawn)
remaining binding (MAP4K5; KINOMEscan; 1 µM; relative to: DMSO control): 99%

Repeated from above:
CO[C@@H]1[C@@H](OC(N)=O)[C@@H](O)[C@H](Oc2ccc3c(O)c(NC(=O)c4ccc(O)c(CC=C(C)C)c4)c(=O)oc3c2C)OC1(C)C
colony survival (DLD-1 BRCA2-/-; 200 µM, replicate B; relative to: untreated): 0.312%

c1ccc(-c2n[nH]cc2-c2ccnc3ccccc23)nc1
log2 fold change (AKL1 (Candida albicans); kinase binding, MIB/MS competition; Candida albicans lysate; 1 µM; relative to: DMSO): 0.04
